Assay results gathered from unrelated publications.
Numbers after ± are the reported error.

Compound | cell line | test | test system | conditions | scale | endpoint | result
CC/C(=N\NC(=O)NCc1cccc(O)c1)c1ccc(O)c(C)c1O | SK-OV-3 | Western blot | 3D culture in gellan gum | 20 µM, 1 h, unit not given | baseline: β-actin | TAZ protein level | 0.82 ± 0.27
CC1(C)CCC(CN2CCN(c3ccc(C(=O)NS(=O)(=O)c4ccc(NCC5CCOCC5)c([N+](=O)[O-])c4)c(Oc4cnc5[nH]ccc5c4)c3)CC2)=C(c2ccc(Cl)cc2)C1 | THP-1 | annexin V/PI flow cytometry, refers to: annexin V+/PI- | – | 3.2 µM, 24 h | – | early apoptotic cells | 9.8%
Cn1cc(-c2ccc(-c3cncc(Cl)c3N3CCC4(CCNC4=O)CC3)cc2)cn1 | COLO 205 | gene expression, microarray, refers to: FSCN1 mRNA | – | concentration not given, 6 h | baseline: untreated cells | log2 fold change | 2.2
CCn1cc(-c2cc(Cn3ccoc3=N)cc3c2CCN([C@@H](C)c2cc(OC)ccn2)C3=O)c(C(F)(F)F)n1 | C3A | cell growth, inhibitor | – | 120 h | – | EC50 | > 30 µM
Cc1cc(Nc2ncc(Cl)c(Nc3ccccc3S(=O)(=O)C(C)C)n2)c(OC(C)C)cc1C1CCNCC1 | CLB-GE | phosphoproteomics LC-MS/MS, refers to: MAPK1 phosphorylation | – | 200 nM, 60 min | baseline: untreated | log2 fold change | -1.6
CCn1cc(-c2cc(Cn3ccnc3)cc3c2CCN([C@H](c2cc(OC)ccn2)C2CC2)C3=O)c(C(F)(F)F)n1 | C3A | cell growth, inhibitor | – | 120 h | – | EC50 | 2.75 µM
O=C(/C=C/C=C/C=C/C1CCCCC1)NC1=C[C@@](O)(/C=C/C=C/C=C/C(=O)NC2=C(O)CCC2=O)[C@@H]2O[C@@H]2C1=O | SK-CO-1 | cell growth, CellTiter-Glo | – | 78 h | – | GI50 | 13.4 µM
COc1cnc2cccc(N3CCc4c(cc(Cn5ccnc5C)cc4-c4cn(C)nc4C(F)(F)F)C3=O)c2c1 | JHH6 | cell growth | – | 120 h | – | EC50 | 1.04 µM
CC(C)NCC(O)c1ccc(O)c(O)c1 (stereo not drawn) | mouse ventricular cardiomyocytes | – | – | dose not given, 0.115 s | – | sarcomere length | 1.65 µm

Some of these lines once more:
Compound | cell line | test | test system | conditions | scale | endpoint | result
CCn1cc(-c2cc(Cn3ccnc3)cc3c2CCN([C@H](c2cc(OC)ccn2)C2CC2)C3=O)c(C(F)(F)F)n1 | C3A | cell growth, inhibitor | – | 120 h | – | EC50 | 2.75 µM
